Assay results pooled from the literature.
Lines come from different studies, so protocols differ. ± gives the spread as reported.
Organism: Plasmodium falciparum

Compound = CC(F)(F)CCCNC[C@H](O)c1cc(Cl)cc2c1-c1ccc(Cl)cc1C2; test system = 3D7; setting = 48 h; IC50 = 8.5 ± 1.6 nM
Compound = Cc1cc(N2CC[C@@](C#N)(C3CC3)C2=O)cc(NC(=O)Cc2ccccc2)n1; test = parasite growth; test system = conditional knockdown control line; setting = 120 h, with: 50 nM anhydrotetracycline; IC50 = 64 nM
Compound = O=C1C(=O)c2[nH]cc3c2C(=C1I)NCC3; test = parasite growth, SYBR Green; test system = DD2; setting = blood stage; IC50 = 12900 nM
Compound = CC1=C(Cn2cc(CN3CCC(=O)CC3)nn2)C(=O)c2ccccc2C1=O; test = parasite growth, [3H]hypoxanthine incorporation; test system = NF54; setting = 72 h; IC50 = > 10000 nM
Compound = COc1cccc2c(-c3ccc(O)c4c3CC(C)(C)N=C4)ccc(OC(C)C)c12; test = asexual parasite proliferation, SYBR Green I fluorescence; test system = K1; IC50 = 147 ± 11 nM
Compound = N[C@H]1C[C@@H](C(=O)O)CC1=C(Cl)Cl; test = parasite growth, SYBR Green; test system = D6; setting = blood stage; IC50 = > 10 µg/mL
Compound = CCCCCc1ccc(Cc2cc(/C=C/C(=O)OC)cc3cccnc23)cc1; test = parasite growth, inhibitor, SYBR Green I; test system = 3D7; IC50 = 6590 nM
Compound = COc1cc2c(c(OC)c1)C(C)=[N+](c1ccc(OC)c3c(OC)cc(C)cc13)[C@@H](C)C2; test = asexual parasite proliferation, SYBR Green I fluorescence; test system = Dd2; IC50 = 438 ± 46 nM
Compound = O=C1C(NCCc2cc(Br)c(O)c(Br)c2)=CC2=NCCc3c[nH]c1c32; test = parasite growth, SYBR Green; test system = W2; setting = blood stage; IC50 = 2560 nM
Compound = CCNCC#CCNc1ccnc2cc(Cl)ccc12; test = parasite growth, SYBR Green; test system = 3D7; setting = blood stage; IC50 = 38.2 nM
Compound = O=C1C(O)=C([C@H]2CC[C@H](c3ccc(Cl)cc3)CC2)C(=O)c2ccccc21; test = parasite growth, SYBR Green; test system = 3D7; setting = 72 h, blood stage; IC50 = 79.7 nM
Compound = Oc1cccc2c1[nH]c1c(C3=CC4(O)CCC=CCCCCN5CCC3C3(CC6C=CCCCCN6C43)C5)nccc12 (single isomer, unassigned; (+)); test = parasite LDH; test system = D6, chloroquine-sensitive; setting = 72 h; IC50 = 0.0195 ± 0.0106 µg/mL
Compound = Cc1cc(N2CCC(CO)(C3CC3)C2=O)cc(C(=O)NCc2cc(F)cc(-c3cnn(C)c3)c2)n1 (centres unmarked); test = parasite growth; test system = conditional knockdown control line; setting = 72 h, with: 50 nM anhydrotetracycline; IC50 = 242 nM
Compound = COc1cccc2c(-c3ccc(O)c4c3CCN=C4)ccc(OC(C)C)c12; test = asexual parasite proliferation, SYBR Green I fluorescence; test system = Dd2; IC50 = 213 ± 47 nM
Compound = Cc1nc(CN(C)c2ncnc3c2cnn3CCO)cs1; test = parasite growth; test system = NF54; setting = blood stage; IC50 = > 6000 nM
Compound = COC1=CC2=NCCc3c[nH]c(c32)C1=O; test = parasite growth, SYBR Green; test system = DD2; setting = blood stage; IC50 = 1180 nM
Compound = Oc1ccc(-c2ccc(O)c3ccccc23)c2c1C=NCC2; test = asexual parasite proliferation, SYBR Green I fluorescence; test system = 7G8; IC50 = 970 ± 210 nM
Compound = O=C(CCCCCONC(=O)c1nc(-c2ccc(Cl)s2)cs1)NO; test = asexual blood-stage growth, [3H]hypoxanthine uptake; test system = 3D7; setting = 72 h; IC50 = 340 nM
Compound = COc1cncc(-c2cc(F)cc(CNC(=O)c3cc(N4CC[C@@](C#N)(C5CC5)C4=O)cc(C)n3)c2)c1; test = parasite growth; test system = conditional knockdown control line; setting = 120 h, with: 50 nM anhydrotetracycline; IC50 = 250 nM
Compound = COc1cccc2c(-c3ccc4c(c3O)[C@@H](C)N[C@H](C)C4)c(CO)cc(OC)c12; test = asexual parasite proliferation, SYBR Green I fluorescence; test system = 7G8; IC50 = 11.5 ± 36000 nM
Compound = O[C@@H](CNCCNC(c1ccccc1)c1ccccc1)c1cc(Cl)cc2c1-c1ccc(Cl)cc1C2; test system = 3D7; setting = 48 h; IC50 = 10.9 ± 1.1 nM
Compound = COc1ccc(CCNC2=CC3=[N+](C)CCc4c[nH]c(c43)C2=O)cc1; test = parasite growth, SYBR Green; test system = DD2; setting = blood stage; IC50 = 76.3 nM
Compound = O=C(CCCCCONC(=O)c1nc(-c2ccncc2)cs1)NO; test = asexual blood-stage growth, [3H]hypoxanthine uptake; test system = 3D7; setting = 72 h; IC50 = 340 nM
Compound = COc1c(Br)cc(CCNC2=CC3=NCCc4c[nH]c(c43)C2=O)cc1Br; test = parasite growth, SYBR Green; test system = W2; setting = blood stage; IC50 = 997 nM
Compound = O=C(CCCCCONC(=O)c1nc(-c2ccc([N+](=O)[O-])cc2)cs1)NO; test = asexual blood-stage growth, [3H]hypoxanthine uptake; test system = 3D7; setting = 72 h; IC50 = 240 nM
Compound = Cc1ccc(S(=O)(=O)n2cc3c4c2C(=O)C(N)=CC4=NCC3)cc1; test = parasite growth, SYBR Green; test system = DD2; setting = blood stage; IC50 = 1870 nM
Compound = COCCN(C)CC(=O)NC(Cc1ccc(-c2ccccc2)cc1)B(O)O (centres unmarked); test = [3H]-hypoxanthine incorporation; test system = 3D7; setting = 48 h; IC50 = 98 nM
Compound = O=C(CCCCCONC(=O)c1nc(-c2ccc(C(F)(F)F)cc2)cs1)NO; test = asexual blood-stage growth, [3H]hypoxanthine uptake; test system = 3D7; setting = 72 h; IC50 = 200 nM
Compound = COc1ccc(-c2ccc(O)c3c(OC)cccc23)c2c1C=NC(C)(C)C2; test = parasite growth, SYBR Green; test system = NF54; setting = blood stage; IC50 = 12400 nM
Compound = CCOC(=O)c1ccc2c(c1)C1CC(C)(N2)c2c(C)nc3ccc(C(=O)OCC)cc3c21 (single isomer, unassigned); test = parasite growth, inhibitor, SYBR Green I; test system = 3D7; IC50 = 17000 nM
Compound = COc1cc(C)c(-c2ccc(O)c3c2C[C@@H](C)N[C@@H]3C)c2cccc(O)c12 (single isomer, unassigned); test = asexual parasite growth, SYBR Green I; test system = clinical isolate SB_04, Malawi; IC50 = 61 ± 5.2 nM
Compound = O=c1oc2cc(O)ccc2cc1-n1cc(COc2ccccc2)nn1; test = parasite growth; test system = 3D7; setting = 72 h, blood stage; IC50 = 5250 nM
Compound = COc1ccc(-c2ccc(C)cc2)c2c1C(C)=N[C@H](C)C2; test = parasite growth, SYBR Green; test system = NF54; setting = blood stage; IC50 = 3900 nM
Compound = C[N+]1=C2C=C(NCCc3c[nH]c4ccccc34)C(=O)c3[nH]cc(c32)CC1; test = parasite growth, SYBR Green; test system = DD2; setting = blood stage; IC50 = 24.2 nM
Compound = COc1ccc2c(c1)C1CC(C)(N2)c2c(C)nc3ccc(OC)cc3c21 (centres unmarked); test = parasite growth, inhibitor, SYBR Green I; test system = 3D7; IC50 = 273 nM

Repeated from above:
Compound = COc1cccc2c(-c3ccc(O)c4c3CCN=C4)ccc(OC(C)C)c12; test = asexual parasite proliferation, SYBR Green I fluorescence; test system = Dd2; IC50 = 213 ± 47 nM
Compound = CC(F)(F)CCCNC[C@H](O)c1cc(Cl)cc2c1-c1ccc(Cl)cc1C2; test system = 3D7; setting = 48 h; IC50 = 8.5 ± 1.6 nM
Compound = O[C@@H](CNCCNC(c1ccccc1)c1ccccc1)c1cc(Cl)cc2c1-c1ccc(Cl)cc1C2; test system = 3D7; setting = 48 h; IC50 = 10.9 ± 1.1 nM
Compound = CCNCC#CCNc1ccnc2cc(Cl)ccc12; test = parasite growth, SYBR Green; test system = 3D7; setting = blood stage; IC50 = 38.2 nM
Compound = COc1c(Br)cc(CCNC2=CC3=NCCc4c[nH]c(c43)C2=O)cc1Br; test = parasite growth, SYBR Green; test system = W2; setting = blood stage; IC50 = 997 nM
Compound = COc1cccc2c(-c3ccc4c(c3O)[C@@H](C)N[C@H](C)C4)c(CO)cc(OC)c12; test = asexual parasite proliferation, SYBR Green I fluorescence; test system = 7G8; IC50 = 11.5 ± 36000 nM
